Assay results gathered from unrelated publications.
± gives the spread as reported.
Organism: Influenza A virus

C[n+]1ccc(C(=O)NCc2ccccc2)cc1
IC50 (viral replication, inhibitor; HEK-293T; 24 h): 354 µM

CCN(CC)CC#CCOC(=O)[C@]1(C)CCC[C@@]2(C)[C@H]1CC(C=O)=C1C=C(C(C)C)CC[C@@H]12
IC50 (viral replication; MDCK, A/Puerto Rico/8/34 (H1N1)): 72.6 µM

CC1=CCC2C(C)(CCC3(O)C24CCC(O)(OC4)C3(C)C)C12Cc1c(cc(-c3cccnc3)oc1=O)O2 (stereo not drawn)
IC50 (viral replication; H1N1): 4.56 µM

CCN(CC)CC(=O)O[C@@H]1C[C@@H]2CC[C@@]1(C)C2(C)C
IC50 (viral replication, inhibitor; MDCK, H1N1 PR8): > 41 µM

O=P(O)(OCc1ccc(-c2ccccc2)cc1)Oc1c2c(c(OP(=O)(O)OCc3ccc(-c4ccccc4)cc3)c3c1C1CC3c3cc4c(cc31)C1CC4c3ccccc31)C1CC2c2cc3c(cc21)C1CC3c2ccccc21
IC50 (viral replication; Caco-2): 0.6 µM

CCN(CC)CC#CCO[C@H]1CC[C@H](O)[C@@H]2[C@H]1[C@H]1C[C@@H]3[C@@]4(C)CCC[C@@](C)(C(=O)OC)[C@@H]4CC[C@@]23C=C1C(C)C
IC50 (viral replication; MDCK, A/Puerto Rico/8/34 (H1N1)): 21.3 µM

C=CC1=C(C)c2cc3nc(cc4[nH]c(cc5[nH]c(cc1n2)c(C)c5C=C)c(C)c4CCC(=O)OCCCCCCCCCCCCCCCCCC)C(CCC(=O)O)=C3C
IC50 (viral replication; MDCK, A/Puerto Rico/8/34 H1N1): > 21.9 µM

CCCCCCCOP(=O)(O)Oc1c2c(c(OP(=O)(O)OCCCCCCC)c3c1C1CC3c3cc4c(cc31)C1CC4c3ccccc31)C1CC2c2cc3c(cc21)C1CC3c2ccccc21
IC50 (viral replication; Caco-2): 24.5 µM

C=CC1=C(C)c2cc3nc(cc4[nH]c(cc5[nH]c(cc1n2)c(C)c5C=C)c(C)c4CCC(=O)OCCCCCCCCCCCCCC)C(CCC(=O)O)=C3C
IC50 (viral replication; MDCK, A/Puerto Rico/8/34 H1N1): 21.3 ± 3.5 µM

C[C@@H](CO)C(=O)OCCc1ccc(O)cc1
IC50 (viral replication, inhibitor; H1N1 WSN; 24 h): 12.7 µM

O=P(O)(OCc1cccc2ccccc12)Oc1c2c(c(OP(=O)(O)OCc3cccc4ccccc34)c3c1C1CC3c3cc4c(cc31)C1CC4c3ccccc31)C1CC2c2cc3c(cc21)C1CC3c2ccccc21
IC50 (viral replication; Caco-2): 0.6 µM

C=C(C)[C@]1(O)CC[C@]2(C)[C@H](CC=C(C)[C@@]23Cc2c(cc(-c4cccnc4)oc2=O)O3)[C@@]12CCC(=O)OC2
IC50 (viral replication; H1N1): 4.03 µM

CC1=CCC[C@H](C)[C@@]12CC[C@@H](C(C)(C)O)C2
IC50 (cytopathic effect; MDCK, H1N1 PR/8; 72 h): 54.2 µg/mL

C=CC1=C(C)c2cc3nc(cc4[nH]c(cc5[nH]c(cc1n2)c(C)c5C=C)c(C)c4CCC(=O)OCCCCCCCCCC)C(CCC(=O)O)=C3C
IC50 (viral replication; MDCK, A/Puerto Rico/8/34 H1N1): 7.2 ± 3.23 µM

CC1=CCC2C3(CO)CCC(O)C(C)(C)C3CCC2(C)C12Cc1c(cc(-c3cccnc3)oc1=O)O2 (stereo not drawn)
IC50 (viral replication; H1N1): 18.4 µM

CN(C)CC(=O)O[C@@H]1C[C@@H]2CC[C@@]1(C)C2(C)C
IC50 (viral replication, inhibitor; MDCK, H1N1 PR8): 163 µM

O=P(O)(O)Oc1c2c(c(OP(=O)(O)O)c3c1C1CC3c3cc4c(cc31)C1CC4c3ccccc31)C1CC2c2cc3c(cc21)C1CC3c2ccccc21
IC50 (viral replication; Caco-2): 30.5 µM

CC(C)C1=C[C@@]23CC[C@@H]4[C@](C)(CCC[C@@]4(C)C(=O)OCC#CCN4CCCC4)[C@H]2C[C@@H]1[C@H]1C(=O)CCC(=O)[C@H]13
IC50 (viral replication; MDCK, A/Puerto Rico/8/34 (H1N1)): 0.47 µM

O=P(O)(OCCc1ccccc1)Oc1c2c(c(OP(=O)(O)OCCc3ccccc3)c3c1C1CC3c3cc4c(cc31)C1CC4c3ccccc31)C1CC2c2cc3c(cc21)C1CC3c2ccccc21
IC50 (viral replication; Caco-2): 11.6 µM

CC(C)=CCC[C@H](C)c1ccc(C)cc1
IC50 (cytopathic effect; MDCK, H3N2; 72 h): 22.1 µg/mL

CC(C)c1ccc2c(c1)CC[C@H]1[C@](C)(C(=O)OCC#CCN3CCOCC3)CCC[C@]21C
IC50 (viral replication; MDCK, A/Puerto Rico/8/34 (H1N1)): > 89 µM

C=CC1=C(C)c2cc3nc(cc4[nH]c(cc5[nH]c(cc1n2)c(C)c5C=C)c(C)c4CCC(=O)OCc1ccccc1)C(CCC(=O)O)=C3C
IC50 (viral replication; MDCK, A/Puerto Rico/8/34 H1N1): > 29.8 µM

C#CCCCCOP(=O)(O)Oc1c2c(c(OP(=O)(O)OCCCCC#C)c3c1C1CC3c3cc4c(cc31)C1CC4c3ccccc31)C1CC2c2cc3c(cc21)C1CC3c2ccccc21
IC50 (viral replication; Caco-2): 46.5 µM

CCN(CC)CC#CCOC(=O)[C@]1(C)CCC[C@]2(C)[C@H]3C[C@H]4C(C(C)C)=C[C@]3(CC[C@H]21)[C@@H]1C(=O)OC(=O)[C@@H]14
IC50 (viral replication; MDCK, A/Puerto Rico/8/34 (H1N1)): 37.4 µM

C=CC1=C(C)c2cc3nc(cc4[nH]c(cc5[nH]c(cc1n2)c(C)c5C=C)c(C)c4CCC(=O)OCc1ccc(-c2ccccc2)cc1)C(CCC(=O)O)=C3C
IC50 (viral replication; MDCK, H3N2): > 26.8 µM

CCc1ccc(COP(=O)(O)Oc2c3c(c(OP(=O)(O)OCc4ccc(CC)cc4)c4c2C2CC4c4cc5c(cc42)C2CC5c4ccccc42)C2CC3c3cc4c(cc32)C2CC4c3ccccc32)cc1
IC50 (viral replication; Caco-2): 3.2 µM

CC(C)C1=CC2=CC[C@@H]3[C@](C)(CCC[C@@]3(C)C(=O)OCC#CCN3CCCC3)[C@H]2CC1
IC50 (viral replication; MDCK, A/Puerto Rico/8/34 (H1N1)): 13.7 µM

CCN(CC)CCCC(=O)O[C@@H]1C[C@@H]2CC[C@@]1(C)C2(C)C
IC50 (viral replication, inhibitor; MDCK, H1N1 PR8): > 14 µM

CCN(CC)CC#CCOC(=O)[C@]1(C)CCC[C@@]2(C)[C@H]1CC=C1C=C(C(C)C)CC[C@@H]12
IC50 (viral replication; MDCK, A/Puerto Rico/8/34 (H1N1)): 12.6 µM

CC1=CC[C@@H]2[C@]34CC[C@](O)(OC3=O)C(C)(C)[C@@H]4CC[C@@]2(C)[C@]12Cc1c(cc(-c3cccnc3)oc1=O)O2
IC50 (viral replication; H1N1): 7.48 µM

CC12CCC(CC1=NCCO)C2(C)C (stereo not drawn)
IC50 (viral replication, inhibitor; MDCK, H1N1 PR8): 1.2 µM

COC(=O)[C@]1(C)CCC[C@]2(C)[C@H]3C[C@H]4C(C(C)C)=C[C@]3(CC[C@H]21)[C@H]1[C@@H]4[C@@H](OCC#CCN2CCOCC2)CC[C@@H]1O
IC50 (viral replication; MDCK, A/Puerto Rico/8/34 (H1N1)): 14.7 µM

CC(C)CCOP(=O)(O)Oc1c2c(c(OP(=O)(O)OCCC(C)C)c3c1C1CC3c3cc4c(cc31)C1CC4c3ccccc31)C1CC2c2cc3c(cc21)C1CC3c2ccccc21
IC50 (viral replication; Caco-2): 2.8 µM

For quick reference, copied from above:
O=P(O)(OCc1cccc2ccccc12)Oc1c2c(c(OP(=O)(O)OCc3cccc4ccccc34)c3c1C1CC3c3cc4c(cc31)C1CC4c3ccccc31)C1CC2c2cc3c(cc21)C1CC3c2ccccc21
IC50 (viral replication; Caco-2): 0.6 µM

C=C(C)[C@]1(O)CC[C@]2(C)[C@H](CC=C(C)[C@@]23Cc2c(cc(-c4cccnc4)oc2=O)O3)[C@@]12CCC(=O)OC2
IC50 (viral replication; H1N1): 4.03 µM

CC1=CCC[C@H](C)[C@@]12CC[C@@H](C(C)(C)O)C2
IC50 (cytopathic effect; MDCK, H1N1 PR/8; 72 h): 54.2 µg/mL
